Published values gathered from unrelated publications.
Every numbered part comes from another study and shows a few of its results, in no order. Substitutions count along the parent as printed.

Set 1 — method: aptamer microarray, sandwich; molecule type: DNA with 2'F-ANA; medium: in vitro; tested at: 200 nM; together with: Cy3 exosite-II aptamer, 400 nM; reading: higher = stronger binding; strand: GGTTGGTGTGGTTGG
Target: Prothrombin, mature alpha-thrombin (F2, Homo sapiens, UniProt P00734)
Notes: whole 15-mer aptamer, many near background
Modification	mean fluorescence intensity
2'F-ANA at 2 3 4 6 7 8 9 12 13 15	554 a.u.
2'F-ANA at 3 4 6 7 8 9 10 13 14 15	169 a.u.
2'F-ANA at 1 2 3 4 6 7 11 13 14 15	62.1 a.u.
2'F-ANA at 8 9 10 14 15	94.9 a.u.
2'F-ANA at 1 3 6 9 10 11 12 13	83.7 a.u.
2'F-ANA at 1 2 3 4 6 7 9 10 13 15	59.8 a.u.
2'F-ANA at 1 2 4 5 7 8 10 11 14	48.9 a.u.
2'F-ANA at 3 5 7 8 9 10 15	70.1 a.u.
2'F-ANA at 4 8 9 11 15	266 a.u.
2'F-ANA at 1 4 5 6 7 13 14 15	45.9 a.u.
2'F-ANA at 1 2 4 9 10 12 13 14	50.9 a.u.
2'F-ANA at 1 2 3 7 9 11 12 14 15	82.2 a.u.
2'F-ANA at 1 2 3 5 6 9 13 14	60.1 a.u.
2'F-ANA at 2 4 7 9 11 13 15	152 a.u.
2'F-ANA at 5 7 10 11 12 14 15	52.4 a.u.
2'F-ANA at 2 4 7 9 10 13 14 15	63.4 a.u.
2'F-ANA at 3 4 7 12 13 14	461 a.u.
2'F-ANA at 1 2 3 4 6 7 9 10 14	50.5 a.u.
2'F-ANA at 4 5 8 9 10 13 14	45.6 a.u.
2'F-ANA at 1 3 6 7 8 10 11 12 13 14 15	98.4 a.u.

Set 2 — method: protein binding microarray; molecule type: double-stranded DNA, one strand shown; medium: in vitro; tested at: not given; baseline: not given; reading: higher = stronger binding
Target: Histone acetyltransferase KAT6A, winged helix 1, GST fusion (KAT6A, Homo sapiens, UniProt Q92794, residues 1-85)
Notes: 8-mer, flanks averaged, mean of 2 arrays, mostly near background
Residues (chain): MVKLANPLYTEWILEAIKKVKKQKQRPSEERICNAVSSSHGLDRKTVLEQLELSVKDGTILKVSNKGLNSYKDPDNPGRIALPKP
Strand	E-score
CTGCACTA	0.00151
CCGTAGCG	0.388
ATTGAAGA	-0.21
ATACAACA	-0.201
CAGCATGA	-0.283
ACGCGGCT	0.382
ATAAAAAT	-0.189
GGTCTATA	-0.162
AATGTTAA	-0.193
GCGCTCCA	0.25
TGATGGAA	-0.217
CGCGGTAC	0.449
CACGGGGG	0.26
AGTTACAA	0.0396

Set 3 — method: DHFR PCA, deep sequencing; medium: yeast; together with: (+)-ABA 0.032 µM; baseline: wild-type fitted maximum; reading: higher = stronger binding
Target: ABI1, truncated, D143A, DHFR fusion (Arabidopsis thaliana)
Notes: methotrexate growth selection, single substitutions
Starting sequence: PYL1, truncated, DHFR fusion (Arabidopsis thaliana); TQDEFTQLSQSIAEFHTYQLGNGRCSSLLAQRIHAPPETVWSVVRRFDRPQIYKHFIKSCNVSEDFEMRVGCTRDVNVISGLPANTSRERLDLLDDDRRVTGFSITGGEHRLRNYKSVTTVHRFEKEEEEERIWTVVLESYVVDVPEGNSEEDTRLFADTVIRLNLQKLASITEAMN
Substitution	relative binding score [%]
I133P	48.3
V70H	5.23
G21T	28.2
E152A	15.9
D92V	6.99
G108D	4.54
H16I	0.461
N22S	37.6
S80C	29.5
G102T	-0.439
K168M	5.98
T73K	4.59
Q10D	50
D92Q	-3.17
Q31W	0.242

Set 4 — target: CCND1, cyclin fold, Cln2 fusion (human); method: yeast growth competition, sequencing; medium: yeast; notes: weak parent motif; baseline: not given; reading: higher = stronger binding
Starting sequence: E2F1 docking peptide (human); PPVKRRLDLETDH; partner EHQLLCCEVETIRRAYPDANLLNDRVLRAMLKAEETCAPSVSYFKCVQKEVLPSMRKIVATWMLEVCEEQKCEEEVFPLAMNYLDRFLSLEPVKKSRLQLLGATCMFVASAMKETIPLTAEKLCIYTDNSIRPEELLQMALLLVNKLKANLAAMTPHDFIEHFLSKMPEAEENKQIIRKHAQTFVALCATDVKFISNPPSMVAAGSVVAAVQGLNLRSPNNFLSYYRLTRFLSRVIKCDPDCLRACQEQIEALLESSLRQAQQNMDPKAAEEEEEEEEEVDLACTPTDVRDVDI
Substitution	normalised enrichment score
D8S	1.08
T11C	0.131
D12N	-0.382
D12S	0.36
P2I	0.00348
H13C	0.893
T11H	-0.118
P2L	-0.0856
T11P	1.55
H13E	0.0243
P1S	0.959
K4P	0.31
H13S	0.738

Set 5 — method: RNA Bind-n-Seq; molecule type: RNA; medium: in vitro; tested at: 365 nM; baseline: no-protein control; reading: higher = stronger binding
Target: RNA binding protein fox-1 homolog 2, RRM domain, GST-SBP tag (RBFOX2, Homo sapiens, UniProt O43251-10, residues 100-194)
Notes: natural RNA segment, single round, ends assumed
Strand	RBNS enrichment (R)
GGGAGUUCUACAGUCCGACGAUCAACUCAAAUACUACUUUUCAAAAGAGACCGAAGGAAGAGGAAUGGGAUCCAGAAUAUACCCCAAAGAGCAAGAAGUACUUCUUGCAUGACGACAGAGAUGAUGGUGUGGAUGGAAUUCUCGGGUGCCAA	0.813
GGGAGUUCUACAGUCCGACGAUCAGAGAGAUCUGCAUGAGGGUGAGAACACACACCUACUCCCACCCAAGGACUCAGAACAACAUGGCUUUUUGAUCGGUACCAACCGACCUACAUCAAUUAGUUAUUGGACUUGGAAUUCUCGGGUGCCAA	2.53
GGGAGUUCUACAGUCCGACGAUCCCAUAUAUAUUAAUAGUCAACAAAUACUCAGAUAUUCUAAGGUCAAUGCCAUUAUUUGAUUAUACCAUUUUGAGGGUGAAUAUGGCUAGGCACUUUAGAUAAGCCUUUUUUGGAAUUCUCGGGUGCCAA	0.84
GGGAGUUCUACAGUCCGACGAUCGGCUCUAAGAGAGUAAUCAUAAAAUACCUUAGAUAAAAUUGCACUAUGGAAUUUUCAUUGAGUAUGUUUAAAUUAUUGGCUUGUCUACUAAUACACAUCUGCUUCAAAAUUGGAAUUCUCGGGUGCCAA	0.553
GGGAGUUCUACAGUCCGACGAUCGACAAGGGGACAAUGACCAUCAAUUCAUCUAAUCAGGAAUUGUGAUGGCUUCCUAAGGAAUCUCUGCUUGCUCUGUAUUCUUUAUGUGGAAUAAUAUCAAGAAAUUUUUCUGGAAUUCUCGGGUGCCAA	0.633
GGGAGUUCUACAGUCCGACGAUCAAUUACCCUCUCCUUUAUAAGAGCUUUCCUCUUUUAUCUUUUACCUGUAGAGACCUGAAAAUCCCACUUGUUUACCCUAGAAUUCAGUGGCAUUUACUGCUUCUUGAUCUUGGAAUUCUCGGGUGCCAA	0.626
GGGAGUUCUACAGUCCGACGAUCGAUUUUGCAGAACCUUUGGUUUUGGACAGUUUCAUUUUUUUGGAUUUGGGAUAGAUUACAUAGGAGUAUGGAGUAUGCUGUAAAUAAAAAUACAAGCUAGUGCUUUGUCUUGGAAUUCUCGGGUGCCAA	0.449
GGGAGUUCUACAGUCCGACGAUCGUAUCUAUUCAGUUUGUUCUUACUAACUUCUGGUCUUUUAAAAGACGUCAACGGAGGAACCUCGGUUCUUCAACACAAGCUUUGUAUGUAAGCCGAGAGAAAAGUCAUGUUGGAAUUCUCGGGUGCCAA	0.417

For quick reference, copied from above (set 4):
Substitution	normalised enrichment score
P2L	-0.0856
D12N	-0.382
T11P	1.55
T11C	0.131
H13E	0.0243
P2I	0.00348
P1S	0.959
K4P	0.31
H13S	0.738
T11H	-0.118
D12S	0.36
